# Assay results of several laboratories.
# A part holds a random share of what one study measured. Changes are numbered by the printed parent chain.

# Set 1 — method: RNA Bind-n-Seq; form: RNA; matrix: in vitro; tested at: not given; relative to: input RNA pool; direction: higher = stronger binding
# Target: RING finger protein unkempt homolog, zinc fingers 1-6, GST-SBP tag (UNK, Homo sapiens, UniProt Q9C0B0, residues 30-357)
# Sequence of UniProt Q9C0B0 (30-357, looked up): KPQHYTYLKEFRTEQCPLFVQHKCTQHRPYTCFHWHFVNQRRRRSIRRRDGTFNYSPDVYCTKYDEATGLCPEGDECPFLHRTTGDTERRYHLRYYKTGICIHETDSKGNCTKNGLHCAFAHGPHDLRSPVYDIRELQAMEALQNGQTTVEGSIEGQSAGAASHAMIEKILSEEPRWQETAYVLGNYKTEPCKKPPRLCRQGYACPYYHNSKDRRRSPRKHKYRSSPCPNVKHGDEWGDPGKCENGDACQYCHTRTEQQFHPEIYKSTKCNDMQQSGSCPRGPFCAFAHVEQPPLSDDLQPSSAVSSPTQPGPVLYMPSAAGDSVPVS
# Notes: RNA with constant flanks, human-mouse chimeric sites, ends assumed
# Constant ends, left off below: GGGAGUUCUACAGUCCGACGAUC … CAACAGAGGAUUGAGCAUCA
Sequence,bound/input enrichment
UGUGCAUAUGAUGCUUGAGAUGGUUUUUGCAAAAGCAGACAUCGCUGCAAGGUCAUUACAAUAGAUAAAAGUGGUAUUUUAAACCUUUGAAAUAAAUGGAUGUAACUGUACCUUGGUACA,0.394 ratio
UUAAUCCCCUUUACUGCUCCCCCACUUCUCAUGGUAAUAACAAAGUCUUAUAUCCCCGUCCUAGCUUUCACUCAGAUGGCUUAUGGAGCCAGUUUCCUAUCUUUCUUGGGAGGGAUCAGA,0.297 ratio
GGUGGGGUGGUCAUUGCCGUUUGAGCUGCUGAUUUUCAUGAGUCGCCUUCAAAACUCUCGCAUAGGGUUGACAAUGUGGGGGGGUGGGGGAUCCAGCUUAUUCUUUUUCCCCAGCCCCCA,2.58 ratio
UUAAUCCCCUUUACUGCUCCCCCACUUCUCAUGGUAAUAACAAAGUCUUAUAUCCCCAUAUUAGCUUUCACUCAGAUGGCUUAUGGAGCCAGUUUCCUAGCUUUCUUGGGAGGGAUCAGA,0.385 ratio
UUUGUAUUUAUGCUAAGCACACGUGCUGGUGGUCUGGGCAUCAAUCUUGCAACUGCUGAUGUAGUAAUUUUAUAUGACUCAGAUUGGAAUCCCCAAGUUGAUCUUCAGGCUAUGGACCGU,0.296 ratio
CAGCUGCAGACAGAAAAGGAUGAGAAGGAGCUGUAUAAGGUACAUUUGAAGAAUACAGAAAUAGAAAAUACGAAGCUUAUGUCAGAGGUCCAGACUUUAAAGAAUUUAGAUGGAAACAAA,3.07 ratio
CUCAUGGCUGCAGAAACAGGAAGUGGCAAAACUGGUGCAUUUAGUAUUCCAGUUAUCCAGAUAGUGUAUGAAACUCUGAAAGACCAACAGGAAGGAAAGAAAGGGAAAACAACUAUUAAA,0.505 ratio
CUUAUGGCUGCAGAAACAGGAAGUGGAAAAACUGGUGCAUUUAGUAUUCCCGUUAUCCAGAUAGUGUAUGAAACUCUGAAAGACCAACAGGAAGGCAAGAAAGGGAAAACAACUAUUAAA,0.75 ratio

# Set 2 — method: DHFR PCA, deep sequencing; matrix: yeast; added: (+)-ABA 0 µM; relative to: wild-type fitted maximum; direction: higher = stronger binding
# Target: ABI1, truncated, D143A, DHFR fusion (Arabidopsis thaliana)
# Notes: methotrexate growth selection, single substitutions
# Starting sequence: PYL1, truncated, DHFR fusion (Arabidopsis thaliana); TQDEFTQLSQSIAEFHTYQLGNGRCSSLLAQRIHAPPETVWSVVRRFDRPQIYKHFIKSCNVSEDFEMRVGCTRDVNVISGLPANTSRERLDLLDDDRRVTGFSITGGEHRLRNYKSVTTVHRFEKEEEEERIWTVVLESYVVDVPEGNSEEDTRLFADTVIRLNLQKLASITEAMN; partner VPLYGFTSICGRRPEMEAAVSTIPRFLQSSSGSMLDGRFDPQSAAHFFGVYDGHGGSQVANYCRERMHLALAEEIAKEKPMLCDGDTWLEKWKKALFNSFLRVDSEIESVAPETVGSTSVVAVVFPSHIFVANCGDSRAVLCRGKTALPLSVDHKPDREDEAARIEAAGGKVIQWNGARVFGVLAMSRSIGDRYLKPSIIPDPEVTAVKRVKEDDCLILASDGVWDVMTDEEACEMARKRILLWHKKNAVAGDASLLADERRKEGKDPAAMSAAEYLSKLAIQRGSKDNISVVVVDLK
Variant,relative binding score [%]
S171W,9.95
D3G,10.2
Y141A,4.73
S150R,8.04
T173L,-1.56
R69W,-1.35
E147T,4.87
Q31T,1.78
V118P,-1.54
Q10T,19.1
G71S,3
V137N,-0.746
M176C,6.68
T86I,38.5
I133E,50.4
S26E,-1.88
E129C,27.3
L166K,1.47

# Set 3 — method: protein-binding microarray; form: double-stranded DNA, one strand shown; matrix: in vitro; tested at: 250 nM; notes: 60-bp whole probe; added: salmon DNA 0.4 mg/ml; relative to: random background probes; direction: higher = stronger binding; constant ends, left off below: GCCTAGCAC … GTCTTGATTCGCTTGACGCTGCTG
# Target: Interferon regulatory factor 5, full length, phosphomimetic (IRF5, Homo sapiens, UniProt Q13568-2, residues 1-514, K96S/S451D/S453D/S456D/S462D)
Sequence,log fluorescence [z-score]
GACGGTTTCATACTGCTGACGTGCTAG,1.53
TTAGGACTGCTACTGGTTTAGTGCTAG,-0.361
TTTGGACTGGACACTGGGTTAGTGCTA,-0.391
GATGGTATCGGGTATCGGGACGTGCTA,4.46
GACGGACTGCTAATCCTGACGTGCTAG,-0.491
CACGGTTTCCTACTGCTGACGTGCTAG,0.372
GACGGACTGGACAATGGGGACGTGCTA,-0.234
GACGGACTGCTTTTCCTGATGTGCTAG,-0.0264
GACGGTATCGGGTATCGGGTCGTGCTA,3.95
GACGATATCGTGTTTCGAGACGTGCTA,2.76
TTATGACTGCTACTGCTTTAGTGCTAG,-0.0264
TCATTTTGCACTCTCTAACTGTGCTAG,0.692

# Set 4 — target: CCNE2, cyclin fold, Cln2 fusion (human); method: yeast growth competition, sequencing; matrix: yeast; notes: strong parent motif; relative to: not given; direction: higher = stronger binding
# Starting sequence: BRCA2 docking peptide (human); CKKRRALDFLSRL
Variant,normalised enrichment score
R5K,0.871
F9A,1.29
C1A,1.06
L10A,1.66
S11A,1.82
K3A,1.9
K2A,0.796

# Repeated from above (set 3):
Sequence,log fluorescence [z-score]
GATGGTATCGGGTATCGGGACGTGCTA,4.46
GACGGACTGCTAATCCTGACGTGCTAG,-0.491
CACGGTTTCCTACTGCTGACGTGCTAG,0.372
GACGGACTGGACAATGGGGACGTGCTA,-0.234
GACGGACTGCTTTTCCTGATGTGCTAG,-0.0264
GACGGTATCGGGTATCGGGTCGTGCTA,3.95
GACGATATCGTGTTTCGAGACGTGCTA,2.76
